# Results from different studies.
# Protocols differ between the studies behind these lines. Several values in a cell are separate wells, animals, samples, runs or records. ± gives the spread as reported.
# T1: TOA1/TOA2 1-286; 1-122 (Saccharomyces cerevisiae); chain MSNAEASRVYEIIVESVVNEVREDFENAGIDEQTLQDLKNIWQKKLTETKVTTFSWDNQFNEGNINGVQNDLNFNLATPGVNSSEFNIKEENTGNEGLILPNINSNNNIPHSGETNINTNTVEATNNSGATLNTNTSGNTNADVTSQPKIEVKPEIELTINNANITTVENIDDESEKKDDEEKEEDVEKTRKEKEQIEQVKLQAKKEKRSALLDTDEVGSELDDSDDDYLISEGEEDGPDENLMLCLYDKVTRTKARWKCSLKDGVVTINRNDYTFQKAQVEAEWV; chain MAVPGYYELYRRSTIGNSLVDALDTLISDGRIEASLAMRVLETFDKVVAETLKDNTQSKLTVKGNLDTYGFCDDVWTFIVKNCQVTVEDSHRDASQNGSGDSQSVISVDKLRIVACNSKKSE
# T2: ihfA/ihfB 1-98; 1-95 (Aggregatibacter actinomycetemcomitans); chain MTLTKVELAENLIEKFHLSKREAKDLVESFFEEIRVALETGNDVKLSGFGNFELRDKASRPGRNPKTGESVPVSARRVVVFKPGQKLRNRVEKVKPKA; chain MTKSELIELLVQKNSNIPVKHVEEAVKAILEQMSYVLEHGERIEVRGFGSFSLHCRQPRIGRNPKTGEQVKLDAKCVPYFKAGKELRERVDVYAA
# Sequence of UniProt Q64663 (whole entry, unmodified, looked up): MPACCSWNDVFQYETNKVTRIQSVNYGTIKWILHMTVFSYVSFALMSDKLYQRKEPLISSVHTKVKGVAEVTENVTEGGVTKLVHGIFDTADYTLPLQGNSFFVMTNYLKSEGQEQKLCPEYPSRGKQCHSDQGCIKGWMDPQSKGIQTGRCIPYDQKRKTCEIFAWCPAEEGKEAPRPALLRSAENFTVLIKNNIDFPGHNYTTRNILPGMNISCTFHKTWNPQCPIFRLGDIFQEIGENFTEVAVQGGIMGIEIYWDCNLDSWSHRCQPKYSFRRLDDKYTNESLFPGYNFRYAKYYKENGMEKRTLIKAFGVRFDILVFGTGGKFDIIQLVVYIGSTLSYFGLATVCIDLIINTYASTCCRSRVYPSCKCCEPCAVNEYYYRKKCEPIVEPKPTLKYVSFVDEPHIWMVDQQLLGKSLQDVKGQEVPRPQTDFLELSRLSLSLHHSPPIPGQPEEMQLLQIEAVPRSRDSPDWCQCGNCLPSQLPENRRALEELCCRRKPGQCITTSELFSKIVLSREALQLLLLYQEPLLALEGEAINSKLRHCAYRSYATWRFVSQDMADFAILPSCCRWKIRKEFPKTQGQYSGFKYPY
# Sequence of UniProt P26368 (whole entry, looked up): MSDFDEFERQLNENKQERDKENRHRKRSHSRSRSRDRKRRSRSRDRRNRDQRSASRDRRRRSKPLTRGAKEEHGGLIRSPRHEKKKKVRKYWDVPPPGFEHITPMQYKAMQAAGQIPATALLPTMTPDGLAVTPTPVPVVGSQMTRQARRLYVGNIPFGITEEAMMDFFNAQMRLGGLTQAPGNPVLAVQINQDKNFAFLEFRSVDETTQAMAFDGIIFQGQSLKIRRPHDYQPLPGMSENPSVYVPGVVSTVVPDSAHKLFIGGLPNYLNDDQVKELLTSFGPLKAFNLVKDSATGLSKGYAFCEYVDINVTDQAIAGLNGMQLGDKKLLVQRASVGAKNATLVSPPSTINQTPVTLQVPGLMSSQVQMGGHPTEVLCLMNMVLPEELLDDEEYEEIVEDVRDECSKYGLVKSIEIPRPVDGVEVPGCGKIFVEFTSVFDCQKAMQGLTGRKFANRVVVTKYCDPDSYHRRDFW
# Sequence of UniProt Q9FY93 (whole entry, looked up): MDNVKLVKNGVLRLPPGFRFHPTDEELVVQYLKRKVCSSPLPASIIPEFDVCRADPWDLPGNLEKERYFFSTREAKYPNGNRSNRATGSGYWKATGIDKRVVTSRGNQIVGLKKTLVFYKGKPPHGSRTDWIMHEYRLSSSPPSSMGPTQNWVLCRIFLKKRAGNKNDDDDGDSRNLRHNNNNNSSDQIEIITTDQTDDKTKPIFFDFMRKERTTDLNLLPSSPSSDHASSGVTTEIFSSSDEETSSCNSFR
# Sequence of UniProt Q9C5T4 (whole entry, looked up): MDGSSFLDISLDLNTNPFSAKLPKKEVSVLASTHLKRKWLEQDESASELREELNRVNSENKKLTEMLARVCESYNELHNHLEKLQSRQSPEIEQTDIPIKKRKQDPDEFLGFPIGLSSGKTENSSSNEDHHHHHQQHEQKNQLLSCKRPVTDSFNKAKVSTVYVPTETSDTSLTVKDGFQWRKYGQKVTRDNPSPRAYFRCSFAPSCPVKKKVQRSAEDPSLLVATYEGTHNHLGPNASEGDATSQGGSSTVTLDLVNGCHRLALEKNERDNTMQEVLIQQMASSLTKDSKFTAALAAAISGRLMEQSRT
# Sequence of UniProt P17888 (whole entry, looked up): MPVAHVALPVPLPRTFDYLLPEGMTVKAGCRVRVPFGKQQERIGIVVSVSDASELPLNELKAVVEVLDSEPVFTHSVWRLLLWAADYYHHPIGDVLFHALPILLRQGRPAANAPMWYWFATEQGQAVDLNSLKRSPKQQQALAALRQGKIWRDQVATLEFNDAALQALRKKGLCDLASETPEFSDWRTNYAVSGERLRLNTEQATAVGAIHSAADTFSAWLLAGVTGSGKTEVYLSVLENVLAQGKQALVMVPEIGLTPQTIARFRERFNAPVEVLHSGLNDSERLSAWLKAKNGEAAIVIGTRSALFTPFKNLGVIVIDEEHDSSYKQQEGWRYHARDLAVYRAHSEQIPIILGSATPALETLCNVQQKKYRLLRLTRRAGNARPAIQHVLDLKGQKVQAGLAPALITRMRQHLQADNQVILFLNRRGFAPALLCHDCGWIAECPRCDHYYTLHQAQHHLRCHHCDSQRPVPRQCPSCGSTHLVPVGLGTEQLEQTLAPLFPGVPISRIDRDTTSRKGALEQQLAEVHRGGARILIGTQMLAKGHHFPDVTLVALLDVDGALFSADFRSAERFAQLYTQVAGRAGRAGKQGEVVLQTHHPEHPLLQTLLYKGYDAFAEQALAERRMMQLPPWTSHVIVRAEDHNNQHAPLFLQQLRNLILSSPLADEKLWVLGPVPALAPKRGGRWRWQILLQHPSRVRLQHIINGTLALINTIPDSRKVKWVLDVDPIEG
# Sequence of UniProt P19544 (whole entry, looked up): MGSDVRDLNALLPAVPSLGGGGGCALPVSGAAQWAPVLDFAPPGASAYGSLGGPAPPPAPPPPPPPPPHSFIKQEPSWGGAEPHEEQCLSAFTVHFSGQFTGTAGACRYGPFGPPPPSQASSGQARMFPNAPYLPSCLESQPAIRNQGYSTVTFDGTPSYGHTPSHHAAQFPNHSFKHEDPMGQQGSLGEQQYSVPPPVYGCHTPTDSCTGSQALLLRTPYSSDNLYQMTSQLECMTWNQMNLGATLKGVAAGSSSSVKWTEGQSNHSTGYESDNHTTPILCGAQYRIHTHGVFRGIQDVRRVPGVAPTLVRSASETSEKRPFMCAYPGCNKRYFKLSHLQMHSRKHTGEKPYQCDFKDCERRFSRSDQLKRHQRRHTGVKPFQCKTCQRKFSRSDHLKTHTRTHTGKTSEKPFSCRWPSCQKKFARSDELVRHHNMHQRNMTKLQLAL
# Sequence of UniProt Q5VWX1 (whole entry, looked up): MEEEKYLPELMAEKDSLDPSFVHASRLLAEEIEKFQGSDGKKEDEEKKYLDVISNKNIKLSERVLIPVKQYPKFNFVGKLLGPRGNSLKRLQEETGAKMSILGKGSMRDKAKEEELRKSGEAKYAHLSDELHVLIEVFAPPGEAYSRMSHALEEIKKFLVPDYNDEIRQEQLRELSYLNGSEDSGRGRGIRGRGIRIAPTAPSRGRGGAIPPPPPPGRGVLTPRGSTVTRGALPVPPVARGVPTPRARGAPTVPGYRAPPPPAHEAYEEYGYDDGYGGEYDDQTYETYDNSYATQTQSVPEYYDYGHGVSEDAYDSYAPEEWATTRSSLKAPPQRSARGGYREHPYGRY
# Sequence of UniProt P55317 (whole entry, looked up): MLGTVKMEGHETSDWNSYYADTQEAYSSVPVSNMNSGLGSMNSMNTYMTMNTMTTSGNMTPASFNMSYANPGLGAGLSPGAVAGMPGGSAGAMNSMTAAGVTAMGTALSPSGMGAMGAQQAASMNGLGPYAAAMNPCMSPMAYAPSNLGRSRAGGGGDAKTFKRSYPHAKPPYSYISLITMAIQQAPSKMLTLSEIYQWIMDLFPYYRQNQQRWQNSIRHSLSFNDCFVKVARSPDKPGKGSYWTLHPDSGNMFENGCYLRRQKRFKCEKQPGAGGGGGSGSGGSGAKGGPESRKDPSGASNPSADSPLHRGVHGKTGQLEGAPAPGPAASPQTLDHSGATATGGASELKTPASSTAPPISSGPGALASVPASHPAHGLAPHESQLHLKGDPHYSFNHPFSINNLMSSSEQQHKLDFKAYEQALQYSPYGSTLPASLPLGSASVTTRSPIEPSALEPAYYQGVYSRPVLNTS
# Sequence of UniProt P29055 (whole entry, looked up): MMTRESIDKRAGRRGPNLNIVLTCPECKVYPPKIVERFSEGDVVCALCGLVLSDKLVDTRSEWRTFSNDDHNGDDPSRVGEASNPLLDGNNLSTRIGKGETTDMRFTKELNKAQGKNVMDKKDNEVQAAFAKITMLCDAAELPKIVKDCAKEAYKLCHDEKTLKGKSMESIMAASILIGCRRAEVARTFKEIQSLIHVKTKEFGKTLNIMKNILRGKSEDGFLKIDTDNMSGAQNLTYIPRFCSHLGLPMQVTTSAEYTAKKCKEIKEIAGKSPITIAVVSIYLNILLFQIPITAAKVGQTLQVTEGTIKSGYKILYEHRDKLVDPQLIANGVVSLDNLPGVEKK
# Sequence of UniProt Q9Y6M1 (whole entry, looked up): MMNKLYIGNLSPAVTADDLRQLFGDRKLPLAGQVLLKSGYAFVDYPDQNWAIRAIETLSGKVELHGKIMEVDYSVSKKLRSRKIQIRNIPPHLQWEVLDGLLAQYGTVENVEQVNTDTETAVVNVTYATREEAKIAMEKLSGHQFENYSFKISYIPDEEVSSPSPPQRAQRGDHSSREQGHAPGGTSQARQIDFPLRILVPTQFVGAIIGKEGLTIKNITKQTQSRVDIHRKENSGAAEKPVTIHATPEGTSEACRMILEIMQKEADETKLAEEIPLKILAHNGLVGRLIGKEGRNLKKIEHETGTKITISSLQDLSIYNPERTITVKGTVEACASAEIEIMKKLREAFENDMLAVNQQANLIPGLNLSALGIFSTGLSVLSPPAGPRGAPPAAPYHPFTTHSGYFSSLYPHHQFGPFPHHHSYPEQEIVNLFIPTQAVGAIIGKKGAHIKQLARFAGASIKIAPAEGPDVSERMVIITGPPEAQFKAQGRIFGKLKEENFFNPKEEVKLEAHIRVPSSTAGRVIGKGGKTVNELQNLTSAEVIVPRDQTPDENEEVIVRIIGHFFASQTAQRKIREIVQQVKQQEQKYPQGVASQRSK
# Sequence of UniProt Q43349 (whole entry, looked up): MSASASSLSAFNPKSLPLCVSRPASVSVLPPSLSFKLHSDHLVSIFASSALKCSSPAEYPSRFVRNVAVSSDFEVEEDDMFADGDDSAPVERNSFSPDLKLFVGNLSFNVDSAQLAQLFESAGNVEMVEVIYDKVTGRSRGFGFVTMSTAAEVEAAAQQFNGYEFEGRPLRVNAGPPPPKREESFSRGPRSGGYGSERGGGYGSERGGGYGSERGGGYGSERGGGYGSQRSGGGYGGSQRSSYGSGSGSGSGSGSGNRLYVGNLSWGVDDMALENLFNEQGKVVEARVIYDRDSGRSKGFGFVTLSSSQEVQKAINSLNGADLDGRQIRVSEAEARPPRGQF
Molecule,target or system,assay,system,conditions,measurement,value
GAATTCCTATATATTAATGTGGAGCTCCGTTCGTCTCAAGTCAATCGGTCC (dsDNA; 5'-amino-C6 primer),"T1, TOA1/TOA2 1-286; 1-122 (Saccharomyces cerevisiae)",array,"double-stranded DNA, one strand shown",TFIIA alone,Kd,0.0669 ± 0.0273 µM
AAAAATGTTTATATATGAAGCATAAA (dsDNA),"NAC083 (Arabidopsis thaliana, UniProt Q9FY93)",EMSA,"double-stranded DNA, one strand shown",,binding,binds
ATCCGAGATGGTACTTTGTGTCTCCTGCTCTGTCAGCAGGGCACTGTACTTGCTGATACCAGGGAATGTTTGTTCTTAAATACCATCATTCCGGACGTGTTTGCCTTGGCCAGTTTTCCATGTACATGCAGAAAGAAGTTTGGACTGATCAATACAGTCCTCTGCCTTTAAAGCAATAGGAAAGAT (dsDNA),"FOXA1 141-274 (Homo sapiens, UniProt P55317)",EMSA,"double-stranded DNA, one strand shown",,binding,binds
CACAAGCACCTCTCTCTCTTCATTAAACAAAAAAAACATAAGCAAAGTTGTATTGAAGTGT (dsDNA),"Protein BZR1 homolog 1-313 (Triticum aestivum, UniProt A0A3B6AUH8)",EMSA,"double-stranded DNA, one strand shown",,binding,no binding
CCCCCGCGCCTACGCAAGTTTTCCGGATCCGTCCATCAAGTCAATCGGTCC (dsDNA; 5'-amino-C6 primer),"SUA7 full length assumed (Saccharomyces cerevisiae, UniProt P29055)",array,"double-stranded DNA, one strand shown",TFIIB alone,Kd,0.00351 ± 0.00058 µM
TATGATTATTTTAAAAATACGTATTAATT (dsDNA),"Uncharacterized protein 1-360 (Prunus persica, UniProt M5W9R3)",EMSA,"double-stranded DNA, one strand shown",,binding,binds
BzATP,"P2X purinoceptor 7 (P2rx7, Rattus norvegicus, UniProt Q64663, Q143A)","ion current, agonist, two-electrode voltage clamp",Xenopus oocytes,11 µM,normalized current,0.605 and 0.772 and 0.504
AGACTTCTCAAGACCGAACGTGCGCGCAGATTTGTCGTACGTATAGTACT (dsDNA),"Beta-amylase 1-651 (Zea mays, UniProt A0A2D0ZCW9)",EMSA,"double-stranded DNA, one strand shown",,binding,binds
11-deoxycorticosterone,human CYP11B2,stopped-flow kinetic modelling,,"3-state conformational selection model, with: equimolar adrenodoxin",Kd,4.69 µM
GAGCTGCAAGTGGATATTTGGACCTCTTTGAGGTCTTCGTTGGAAACGGGATTTCCTCATATAATGTTACACAGAAGAATTCTCAGTAACTTATTTGTGGTGTGTGTATTCAACTCACAGAGGTGAACCTTCCTTCAGAAAGAGCAGATTTGAAACACTCTTTTTGTACCC (dsDNA),CENP-I/CENP-H/CENP-K 57-281 / 1-247 / 1-269 K243A/K263A/K270A/R279A/N280A (Homo sapiens),EMSA,"double-stranded DNA, one strand shown",,binding,no binding
TGTTTT (ssDNA),"CP29A 255-334 (Arabidopsis thaliana, UniProt Q43349)",NMR titration,single-stranded DNA,,binding,binds
AAAAAAAA (ssRNA),"KHDRBS2 50-160 (Homo sapiens, UniProt Q5VWX1)",protein microarray,RNA,,binding,binds
"DNA 1 ACACTACAATGTTGCAAT / DNA 2 GTATTGCAACATTGTAGT (dsDNA (Drosophila melanogaster); 16 bp, 5' 2 nt overhangs)",dsx fragment (Drosophila melanogaster),EMSA,double-stranded DNA,,binding,binds
GAGGGCTATAGATGCTCTAACAGACTCAGTTTAGGCCCGC (dsDNA),"Transcription factor 1-552 (Triticum aestivum, UniProt G9DR80)",EMSA,"double-stranded DNA, one strand shown",,binding,binds
GGGTTCCCGTTGCCACCGGGGTTCCCGTTGCCACCGGGGTTCCCGTTGCCACCG (dsDNA),"Transcription factor MYB80 full length assumed (Triticum aestivum, UniProt A0A3B6C8C3)",EMSA,"double-stranded DNA, one strand shown",,binding,binds
AACUACAGGACUAUUUGACAUCAUAAUAAA (ssRNA),"IGF2BP2 1-599 (Homo sapiens, UniProt Q9Y6M1)",pull-down,RNA,,binding,binds
colistin,Pseudomonas aeruginosa,broth microdilution,clinical isolate RKI-No_578/15,,MIC,2 µg/mL
GACAAAAGATGTTGACCTTCACGCCTCTCTTCTTAGACCCCACGCGCCACACTCTCACGGTGAGAACATAAATATCAATCTCTCTTTTACCGCCTCCTACCCATTTATCTCTCTCTTTCTCAAAACCTTTCAGTCAAAATTCTCC (dsDNA),"WRKY18 full length assumed (Arabidopsis thaliana, UniProt Q9C5T4)",EMSA,"double-stranded DNA, one strand shown",,binding,binds
TTTTTTTTTTTTTTTTTTTT (ssDNA),"priA 211-732 (Escherichia coli, UniProt P17888)",UV photo-cross-linking,single-stranded DNA,"no nucleotide, tryptic fragment",binding,binds
GGTTAGGGTTAG (ssDNA; 5'-phosphate),"Pot1b 1-300 (Mus musculus, UniProt H7BX60)",EMSA,single-stranded DNA,,binding,binds
CGGTTTTTCCCCTGCGGGTCGTATTGGAAAGCCATTGAAAAGCTGATGGATAACTCTGCGAGTTACCCACGAGCTTTCCA (dsDNA),"T2, ihfA/ihfB 1-98; 1-95 (Aggregatibacter actinomycetemcomitans)",EMSA,"double-stranded DNA, one strand shown",,binding,binds
ACCAAGCGGGTTGCGGAGCCGCCGCCGCCGCCG (dsDNA; blunt),"WT1 323-438 (Homo sapiens, UniProt P19544)",EMSA,"double-stranded DNA, one strand shown",,binding,no binding
"FGA (Homo sapiens, UniProt P02671)","RTKN2 (Homo sapiens, UniProt Q8IZC4)",cross-linking MS,,with: DSSO,cross-linked residues,K620 to K349
AGCGTAGCACTGGGCT (dsDNA),"protein full length assumed D348A (Bacillus pumilus, UniProt A3FMN7)",EMSA,"double-stranded DNA, one strand shown",,binding,no binding
AGGCUGAUAUUUCUUUGAG (ssRNA),"U2AF2 148-342 (Homo sapiens, UniProt P26368)",MST,RNA,,Kd,4.44 ± 2.45 µM

# A few entries again:
Molecule,target or system,assay,system,conditions,measurement,value
ACCAAGCGGGTTGCGGAGCCGCCGCCGCCGCCG (dsDNA; blunt),"WT1 323-438 (Homo sapiens, UniProt P19544)",EMSA,"double-stranded DNA, one strand shown",,binding,no binding
TGTTTT (ssDNA),"CP29A 255-334 (Arabidopsis thaliana, UniProt Q43349)",NMR titration,single-stranded DNA,,binding,binds
AAAAAAAA (ssRNA),"KHDRBS2 50-160 (Homo sapiens, UniProt Q5VWX1)",protein microarray,RNA,,binding,binds
